Measured values pooled from the literature.
Protocols differ between the studies behind these lines. ± marks the error that the study gave.
Cell line: HEK293

Structure (SMILES) | assay | setting | how to read | quantity | value
CC(C)Cc1ccc(C(C)C(=O)N/N=C/c2ccc(OCC(=O)N/N=C/c3cccc(O)c3)cc2)cc1 (stereo not shown) | MTT | 10 µM, 48 h |  | viability | 58.6%
Cc1[nH][n+]([Pd-2]([Br])([Br])[n+]2[nH]c(C)c(CSC3CCCCC3)c2C)c(C)c1CSC1CCCCC1 | cytotoxicity, 7-AAD flow cytometry | 24 h |  | IC50 | 0.85 ± 0.07 µM
NC[C@H]1O[C@H](O[C@H]2[C@H](OCCCCCCCCCCCCn3cc(CNc4nc(NCc5cn(CCCCCCCCCCCCO[C@@H]6[C@@H](O)[C@H](N)C[C@H](N)[C@H]6O[C@H]6O[C@H](CN)[C@@H](O)C[C@H]6N)nn5)nc(NCc5cn(CCCCCCCCCCCCO[C@@H]6[C@@H](O)[C@H](N)C[C@H](N)[C@H]6O[C@H]6O[C@H](CN)[C@@H](O)C[C@H]6N)nn5)n4)nn3)[C@@H](O)[C@H](N)C[C@@H]2N)[C@H](N)C[C@@H]1O | cell growth or viability, resazurin | 27 µM, 48 h |  | viability | 1.77%
COc1cc(C2CC(=O)Nc3nc(N)[nH]c(=O)c32)ccc1O (stereo not shown) | MTT | concentration not given, 96 h |  | viability reduction | ~10%
O=C1CCc2ccc(NS(=O)(=O)c3cccc(Oc4ccccc4)c3)cc2N1 |  | up to 1 µM |  | cytotoxicity | not toxic
CC(C)Cc1ccc(C(C)C(=O)N/N=C/c2ccc(OCC(=O)N/N=C/c3ccc([N+](=O)[O-])cc3)cc2)cc1 (stereo not shown) | MTT | 100 µM, 48 h |  | viability | 45.2%
C[C@@H](Nc1c(-c2c(F)cc(C#CCCO)cc2F)c(Cl)nc2ncnn12)C(C)(C)C | cell growth or viability, ATP luminescence | 48 h |  | CC50 | 0.0359 µM
NCC1OC(OC2C(N)CC(N)C(OC3OC(CO)C(O)C(N)C3O)C2OCCCCCCCCn2cc(CNc3nc(NCc4cn(CCCCCCCCOC5C(OC6OC(CN)C(O)CC6N)C(N)CC(N)C5OC5OC(CO)C(O)C(N)C5O)nn4)nc(NCc4cn(CCCCCCCCOC5C(OC6OC(CN)C(O)CC6N)C(N)CC(N)C5OC5OC(CO)C(O)C(N)C5O)nn4)n3)nn2)C(N)CC1O (stereo not shown) | cell growth or viability, resazurin | 48 h |  | CC50 | 116 µM
COc1ccc(C(=O)/C=C(\O)C(F)(F)C(F)(F)F)c(O)c1 | cell viability | 24 h, 10% FBS |  | EC50 | ~10 µM
O=C(CN1CCC(NC(=O)CSc2ccc(Cl)cc2)CC1)Nc1ccccc1 | MTT | concentration not given, 18 h, all tested concentrations |  | viability | not toxic
CN(C)CCCOc1cc(F)c(-c2c(Cl)nc3ncnn3c2NCC(C)(C)C)c(F)c1 | cell growth or viability, ATP luminescence | 48 h |  | CC50 | 0.0227 µM
Cc1[nH][n+]([Pd-2]([Cl])([Cl])[n+]2[nH]c(C)c(CSCc3ccccc3)c2C)c(C)c1CSCc1ccccc1 | cytotoxicity, 7-AAD flow cytometry | 24 h |  | IC50 | 0.92 ± 0.09 µM
CC(C)Cc1ccc(C(C)C(=O)NN=Cc2ccc(OCC(=O)NN=Cc3cccc([N+](=O)[O-])c3)cc2)cc1 (stereo not shown) | MTT | 10 µM, 48 h |  | viability | 112%
C[C@H](Nc1c(-c2c(F)cc(OCCCN)cc2F)c(Cl)nc2ncnn12)C(F)(F)F | cell growth or viability, ATP luminescence | 48 h |  | CC50 | 0.029 µM
CC(C)(C)OC(=O)N[C@@H](Cc1ccccc1)C(=O)N[C@@H](Cc1ccccc1)C(=O)NCCNC(=O)[C@H](Cc1ccccc1)NC(=O)[C@H](Cc1ccccc1)NC(=O)OC(C)(C)C | MTT | 24 h, 37 °C, self-assembled structures |  | highest non-toxic concentration | ≤ 75 µM
CN(C)CCCOc1cc(F)c(-c2c(Cl)nc3ncnn3c2NCC2(C)N=N2)c(F)c1 | cell growth or viability, ATP luminescence | 48 h |  | CC50 | 0.0191 µM
COc1cccc(/C=N/NC(=O)COc2ccc(/C=N/NC(=O)C(C)c3ccc(CC(C)C)cc3)cc2)c1O (stereo not shown) | MTT | 40 µM, 48 h |  | viability | 56%
CC(Nc1c(-c2c(F)cc(OCCCN(C)C)cc2F)c(Cl)nc2ncnn12)C(C)(C)C (stereo not shown) | cell growth or viability, ATP luminescence | 48 h |  | CC50 | 0.0108 µM
CC(C)Cc1ccc(C(C)C(=O)N/N=C/c2ccc(OCC(=O)N/N=C/c3c(O)ccc4ccccc34)cc2)cc1 (stereo not shown) | MTT | 10 µM, 48 h |  | viability | 42.1%
CC(C)[C@@H](C)Nc1c(-c2c(F)cc(OCCCN(C)C)cc2F)c(Cl)nc2ncnn12 | cell growth or viability, ATP luminescence | 48 h |  | CC50 | 0.0152 µM
COC(=O)[C@H](CSSC[C@H](NC(=O)[C@H](Cc1ccccc1)NC(=O)[C@H](Cc1ccccc1)NC(=O)OC(C)(C)C)C(=O)OC)NC(=O)[C@H](Cc1ccccc1)NC(=O)[C@H](Cc1ccccc1)NC(=O)OC(C)(C)C | MTT | 36 h |  | cytotoxic concentration | 100 µM
C[C@@H](Nc1c(-c2c(F)cc(OCCCN(C)C)cc2F)c(Cl)nc2ncnn12)C1CC1 | cell growth or viability, ATP luminescence | 48 h |  | CC50 | 0.0371 µM
NCC1OC(OC2C(N)CC(N)C(OC3OC(CO)C(O)C(N)C3O)C2OCCCCn2cc(CNc3nc(NCc4cn(CCCCOC5C(OC6OC(CN)C(O)CC6N)C(N)CC(N)C5OC5OC(CO)C(O)C(N)C5O)nn4)nc(NCc4cn(CCCCOC5C(OC6OC(CN)C(O)CC6N)C(N)CC(N)C5OC5OC(CO)C(O)C(N)C5O)nn4)n3)nn2)C(N)CC1O (stereo not shown) | PrestoBlue | 2 µM, 48 h | reference: untreated | viability | 90%
COC(=O)[C@H](Cc1ccccc1)NC(=O)[C@H](Cc1ccccc1)NC(=O)CCC(=O)N[C@@H](Cc1ccccc1)C(=O)N[C@@H](Cc1ccccc1)C(=O)OC | MTT | 24 h, 37 °C, self-assembled structures |  | highest non-toxic concentration | ≤ 75 µM
C[C@@H](Nc1c(-c2c(F)cc(C#CCCN)cc2F)c(Cl)nc2ncnn12)C(C)(C)C | cell growth or viability, ATP luminescence | 48 h |  | CC50 | 0.267 µM

Some of these lines once more:
Structure (SMILES) | assay | setting | how to read | quantity | value
CN(C)CCCOc1cc(F)c(-c2c(Cl)nc3ncnn3c2NCC(C)(C)C)c(F)c1 | cell growth or viability, ATP luminescence | 48 h |  | CC50 | 0.0227 µM
Cc1[nH][n+]([Pd-2]([Cl])([Cl])[n+]2[nH]c(C)c(CSCc3ccccc3)c2C)c(C)c1CSCc1ccccc1 | cytotoxicity, 7-AAD flow cytometry | 24 h |  | IC50 | 0.92 ± 0.09 µM
CC(C)Cc1ccc(C(C)C(=O)NN=Cc2ccc(OCC(=O)NN=Cc3cccc([N+](=O)[O-])c3)cc2)cc1 (stereo not shown) | MTT | 10 µM, 48 h |  | viability | 112%
C[C@H](Nc1c(-c2c(F)cc(OCCCN)cc2F)c(Cl)nc2ncnn12)C(F)(F)F | cell growth or viability, ATP luminescence | 48 h |  | CC50 | 0.029 µM
